Assay results of several laboratories.
Every numbered part comes from another study and shows a few of its results, in no order.
Sequence of UniProt P22607 (whole entry, looked up): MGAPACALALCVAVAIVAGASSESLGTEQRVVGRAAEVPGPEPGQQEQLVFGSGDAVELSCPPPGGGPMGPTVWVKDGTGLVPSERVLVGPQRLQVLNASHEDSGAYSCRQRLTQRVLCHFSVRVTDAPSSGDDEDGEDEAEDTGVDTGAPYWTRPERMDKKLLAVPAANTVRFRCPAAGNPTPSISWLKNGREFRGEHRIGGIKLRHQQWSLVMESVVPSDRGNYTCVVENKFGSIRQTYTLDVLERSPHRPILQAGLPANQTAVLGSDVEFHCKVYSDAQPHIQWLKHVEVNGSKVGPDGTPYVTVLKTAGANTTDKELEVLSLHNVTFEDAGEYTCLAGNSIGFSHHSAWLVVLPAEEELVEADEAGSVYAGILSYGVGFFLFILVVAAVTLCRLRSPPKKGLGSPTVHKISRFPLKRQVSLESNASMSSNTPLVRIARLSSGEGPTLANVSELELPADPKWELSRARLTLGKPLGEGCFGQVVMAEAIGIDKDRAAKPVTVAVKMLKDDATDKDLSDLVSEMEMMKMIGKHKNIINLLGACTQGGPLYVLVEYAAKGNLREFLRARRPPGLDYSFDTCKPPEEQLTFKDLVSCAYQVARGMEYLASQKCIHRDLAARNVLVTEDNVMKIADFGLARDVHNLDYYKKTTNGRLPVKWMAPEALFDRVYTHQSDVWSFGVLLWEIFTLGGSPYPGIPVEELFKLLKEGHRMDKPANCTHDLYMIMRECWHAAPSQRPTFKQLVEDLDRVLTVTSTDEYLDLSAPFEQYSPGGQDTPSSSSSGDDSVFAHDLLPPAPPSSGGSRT
Sequence of UniProt Q9H832 (whole entry, looked up): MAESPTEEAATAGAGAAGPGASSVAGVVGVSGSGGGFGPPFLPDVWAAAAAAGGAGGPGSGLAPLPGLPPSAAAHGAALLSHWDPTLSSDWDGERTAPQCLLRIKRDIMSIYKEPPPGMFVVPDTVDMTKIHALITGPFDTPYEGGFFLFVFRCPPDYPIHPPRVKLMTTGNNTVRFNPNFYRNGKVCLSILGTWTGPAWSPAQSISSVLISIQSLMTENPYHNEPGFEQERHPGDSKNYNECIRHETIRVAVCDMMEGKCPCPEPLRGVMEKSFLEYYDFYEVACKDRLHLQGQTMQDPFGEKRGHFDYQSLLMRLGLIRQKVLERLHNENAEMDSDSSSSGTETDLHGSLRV
Sequence of UniProt Q8IYT8 (whole entry, looked up): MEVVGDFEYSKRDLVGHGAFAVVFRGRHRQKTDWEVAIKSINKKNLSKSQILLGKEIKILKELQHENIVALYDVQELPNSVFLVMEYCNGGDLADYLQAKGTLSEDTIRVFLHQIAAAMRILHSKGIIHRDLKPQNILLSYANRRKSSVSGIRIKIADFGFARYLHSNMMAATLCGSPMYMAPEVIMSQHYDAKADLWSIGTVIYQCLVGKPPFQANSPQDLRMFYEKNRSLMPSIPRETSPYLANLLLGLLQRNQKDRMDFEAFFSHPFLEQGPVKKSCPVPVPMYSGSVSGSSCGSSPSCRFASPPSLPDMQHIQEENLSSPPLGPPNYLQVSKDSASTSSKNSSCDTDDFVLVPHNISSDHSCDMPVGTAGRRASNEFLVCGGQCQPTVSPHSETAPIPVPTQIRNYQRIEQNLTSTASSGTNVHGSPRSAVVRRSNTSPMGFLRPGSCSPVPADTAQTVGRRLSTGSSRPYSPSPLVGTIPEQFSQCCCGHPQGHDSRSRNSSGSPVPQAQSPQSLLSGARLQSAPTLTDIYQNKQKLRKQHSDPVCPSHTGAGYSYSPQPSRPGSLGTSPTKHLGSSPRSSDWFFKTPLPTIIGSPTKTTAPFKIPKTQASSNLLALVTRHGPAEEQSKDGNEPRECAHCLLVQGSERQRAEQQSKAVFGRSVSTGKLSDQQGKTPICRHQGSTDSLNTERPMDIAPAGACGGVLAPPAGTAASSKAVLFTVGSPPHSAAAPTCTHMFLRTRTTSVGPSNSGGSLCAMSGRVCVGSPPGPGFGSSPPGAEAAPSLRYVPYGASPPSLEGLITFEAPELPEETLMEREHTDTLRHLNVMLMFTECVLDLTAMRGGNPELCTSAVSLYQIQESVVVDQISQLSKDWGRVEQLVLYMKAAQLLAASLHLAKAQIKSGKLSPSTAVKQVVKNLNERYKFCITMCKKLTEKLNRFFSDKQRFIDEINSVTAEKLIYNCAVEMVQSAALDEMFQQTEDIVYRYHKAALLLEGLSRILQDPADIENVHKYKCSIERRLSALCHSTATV
Sequence of UniProt Q969T4 (whole entry, looked up): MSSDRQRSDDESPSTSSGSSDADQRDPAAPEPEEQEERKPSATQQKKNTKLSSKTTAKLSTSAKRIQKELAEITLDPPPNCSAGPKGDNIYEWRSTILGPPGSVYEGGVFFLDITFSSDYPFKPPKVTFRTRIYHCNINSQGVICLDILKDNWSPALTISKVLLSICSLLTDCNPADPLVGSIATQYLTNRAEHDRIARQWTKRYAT
Sequence of UniProt Q02763 (whole entry, looked up): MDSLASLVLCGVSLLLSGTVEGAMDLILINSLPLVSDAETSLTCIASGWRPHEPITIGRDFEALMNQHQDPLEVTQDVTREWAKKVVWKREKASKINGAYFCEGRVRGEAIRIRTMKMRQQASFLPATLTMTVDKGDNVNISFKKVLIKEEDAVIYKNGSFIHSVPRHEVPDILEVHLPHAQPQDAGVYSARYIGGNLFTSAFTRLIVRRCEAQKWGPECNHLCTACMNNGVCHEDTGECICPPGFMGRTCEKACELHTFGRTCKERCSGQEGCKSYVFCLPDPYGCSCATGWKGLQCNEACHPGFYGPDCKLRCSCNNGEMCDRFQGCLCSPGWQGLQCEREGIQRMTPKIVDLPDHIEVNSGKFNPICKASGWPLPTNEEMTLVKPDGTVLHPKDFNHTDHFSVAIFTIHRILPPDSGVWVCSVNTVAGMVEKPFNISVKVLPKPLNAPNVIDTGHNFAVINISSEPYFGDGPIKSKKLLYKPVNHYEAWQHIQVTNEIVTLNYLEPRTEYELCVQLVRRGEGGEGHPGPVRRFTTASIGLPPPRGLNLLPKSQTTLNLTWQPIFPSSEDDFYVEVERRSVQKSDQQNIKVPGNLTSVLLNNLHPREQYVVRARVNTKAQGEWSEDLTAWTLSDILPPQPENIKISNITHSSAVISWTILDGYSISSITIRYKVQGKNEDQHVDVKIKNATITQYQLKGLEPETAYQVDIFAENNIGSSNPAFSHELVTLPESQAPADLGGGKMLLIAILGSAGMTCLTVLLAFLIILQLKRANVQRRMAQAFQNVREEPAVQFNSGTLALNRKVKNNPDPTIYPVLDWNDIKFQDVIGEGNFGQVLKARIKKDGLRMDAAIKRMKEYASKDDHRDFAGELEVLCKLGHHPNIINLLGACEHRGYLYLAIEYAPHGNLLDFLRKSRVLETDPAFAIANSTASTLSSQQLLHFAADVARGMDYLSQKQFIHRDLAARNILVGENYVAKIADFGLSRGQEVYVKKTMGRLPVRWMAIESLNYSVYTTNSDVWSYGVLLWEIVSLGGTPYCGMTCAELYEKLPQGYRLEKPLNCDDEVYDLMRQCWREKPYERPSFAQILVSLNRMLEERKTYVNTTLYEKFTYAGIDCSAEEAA
Sequence of UniProt Q8TBX8 (whole entry, looked up): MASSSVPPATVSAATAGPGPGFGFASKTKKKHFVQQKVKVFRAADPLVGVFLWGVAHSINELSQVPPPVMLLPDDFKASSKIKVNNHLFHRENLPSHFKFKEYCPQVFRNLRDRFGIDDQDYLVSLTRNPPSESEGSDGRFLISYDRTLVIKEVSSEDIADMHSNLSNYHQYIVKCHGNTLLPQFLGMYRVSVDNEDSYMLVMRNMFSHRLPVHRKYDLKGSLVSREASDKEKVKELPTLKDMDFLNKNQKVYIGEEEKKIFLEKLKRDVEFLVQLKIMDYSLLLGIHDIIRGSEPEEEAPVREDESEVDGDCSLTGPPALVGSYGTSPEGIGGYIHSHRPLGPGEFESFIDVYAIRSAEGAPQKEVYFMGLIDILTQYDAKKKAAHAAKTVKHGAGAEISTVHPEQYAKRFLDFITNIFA
Sequence of UniProt Q9Y6M4 (whole entry, looked up): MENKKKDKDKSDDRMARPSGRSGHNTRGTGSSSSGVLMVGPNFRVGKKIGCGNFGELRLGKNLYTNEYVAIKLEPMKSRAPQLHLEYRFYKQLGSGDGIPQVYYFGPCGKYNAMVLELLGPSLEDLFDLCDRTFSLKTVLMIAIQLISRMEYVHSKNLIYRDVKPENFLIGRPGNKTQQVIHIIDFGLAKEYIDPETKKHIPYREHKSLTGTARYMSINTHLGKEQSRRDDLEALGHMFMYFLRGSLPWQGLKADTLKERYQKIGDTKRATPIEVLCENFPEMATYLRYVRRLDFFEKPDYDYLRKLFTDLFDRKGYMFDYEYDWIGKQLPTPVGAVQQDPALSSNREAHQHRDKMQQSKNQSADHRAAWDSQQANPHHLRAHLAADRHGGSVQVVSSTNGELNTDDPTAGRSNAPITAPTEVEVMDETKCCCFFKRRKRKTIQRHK
Sequence of UniProt P51668 (whole entry, looked up): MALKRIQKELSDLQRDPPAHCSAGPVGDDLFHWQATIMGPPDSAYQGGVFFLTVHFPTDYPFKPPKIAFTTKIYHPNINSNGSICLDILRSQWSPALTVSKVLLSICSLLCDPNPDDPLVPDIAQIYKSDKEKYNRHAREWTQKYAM

Sample 1 — observed: enzyme activity; action: inhibitor; tested at: 0.5 µM; baseline: control
SMILES: O=C1Cc2c([nH]c3ccc([N+](=O)[O-])cc23)-c2ccccc2N1
target	remaining activity [%]
ABL2 (Homo sapiens, UniProt P42684)	54.6
FGFR1 (Homo sapiens, UniProt P11362)	88.6
MAPKAPK2 (Homo sapiens, UniProt P49137)	77.4
MST1R (Homo sapiens, UniProt Q04912)	103
FGFR3 (Homo sapiens, UniProt P22607)	90.5
MAPK3 (Homo sapiens, UniProt P27361)	93.5
CSNK1G3 (Homo sapiens, UniProt Q9Y6M4)	90
FRK (Homo sapiens, UniProt P42685)	97.2
MAP3K14 (Homo sapiens, UniProt Q99558)	132
TAOK2 (Homo sapiens, UniProt Q9UL54)	88.9
GRK7 (Homo sapiens, UniProt Q8WTQ7)	99
TEK (Homo sapiens, UniProt Q02763)	92.1
ULK2 (Homo sapiens, UniProt Q8IYT8)	72.7

Sample 2 — Molecule: B1 (ZNF598 RING domain); technique: yeast two-hybrid; medium: yeast; notes: mostly zero background; baseline: not given; direction: higher = stronger interaction
B1: ZNF598 RING domain (UniProt Q86UK7); chain AAAPERGGGSCVLCCGDLEATALGRCDHPVCYRCSTKMRVLCEQRYCAVCREELRQVVFGK
target	lacZ reporter activity
UBE2E3 UBC core domain (UniProt Q969T4)	0
UBE2Z UBC core domain (UniProt Q9H832)	0
UBE2L3 UBC core domain (UniProt P68036)	0
UBE2G1 UBC core domain (UniProt P62253)	0
UBE2T UBC core domain (UniProt Q9NPD8)	0
UBE2S UBC core domain (UniProt Q16763)	0
UBE2C UBC core domain (UniProt O00762)	0
UBE2D1 UBC core domain (UniProt P51668)	0

Sample 3 — technique: RNA Bind-n-Seq; molecule type: RNA; medium: in vitro; tested at: 90 pmol; notes: 4-mer, random 30-nt RNA, single round; together with: 3 µM DMDA-PatA, 2 mM ADP, 2 mM phosphate; baseline: input library; direction: higher = stronger binding
Target: Eukaryotic initiation factor 4A-I (EIF4A1, Homo sapiens, UniProt P60842, residues 1-406, full length assumed)
Sequence of UniProt P60842 (whole entry, looked up): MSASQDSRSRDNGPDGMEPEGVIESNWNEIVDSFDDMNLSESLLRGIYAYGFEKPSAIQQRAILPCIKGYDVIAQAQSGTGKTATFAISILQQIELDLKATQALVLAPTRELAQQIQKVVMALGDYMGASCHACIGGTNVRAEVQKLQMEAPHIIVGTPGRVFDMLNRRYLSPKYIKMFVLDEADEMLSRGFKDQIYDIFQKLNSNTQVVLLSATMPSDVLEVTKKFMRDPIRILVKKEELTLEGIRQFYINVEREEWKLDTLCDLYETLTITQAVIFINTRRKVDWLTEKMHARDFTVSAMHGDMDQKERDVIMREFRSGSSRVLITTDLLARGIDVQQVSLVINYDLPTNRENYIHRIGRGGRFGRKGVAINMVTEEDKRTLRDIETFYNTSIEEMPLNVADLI
Sequence	4-mer enrichment
ACCC	0.71 fold
CCGU	0.587 fold
ACGU	0.704 fold
UCCC	0.683 fold
GAAC	0.741 fold
CCAC	0.646 fold
UCUG	0.732 fold
UUUG	1.17 fold

Sample 4 — observed: cell-free assay; technique: competition with immobilised ligand; tested at: 1 µM
Structure (SMILES): COc1cc(-c2cn(C3CCc4ccccc4N(CC(F)(F)F)C3=O)nn2)ccc1-n1ccc(C)n1 (stereo not shown)
target	remaining binding [%]
FGFR3 (Homo sapiens, UniProt P22607)	100
STK17A (Homo sapiens, UniProt Q9UEE5)	100
PIP4K2C (Homo sapiens, UniProt Q8TBX8)	100
KIT (Homo sapiens, UniProt P10721, V559D)	96
MAP3K12 (Homo sapiens, UniProt Q12852)	100

Repeated from above (sample 4):
target	remaining binding [%]
STK17A (Homo sapiens, UniProt Q9UEE5)	100
KIT (Homo sapiens, UniProt P10721, V559D)	96
MAP3K12 (Homo sapiens, UniProt Q12852)	100
